Results of several laboratories.
Every numbered part comes from another study and shows a few of its results, in no order. Positions count from the first letter of the parent shown.

Block 1
Target: ABI1, truncated, D143A, DHFR fusion (Arabidopsis thaliana)
Technique: DHFR PCA, deep sequencing
Sample: yeast
Setting: methotrexate growth selection, single substitutions
Together with: (+)-ABA 0.0091 µM
Reference: wild-type fitted maximum
Reading: higher = stronger binding
Starting sequence: PYL1, truncated, DHFR fusion (Arabidopsis thaliana); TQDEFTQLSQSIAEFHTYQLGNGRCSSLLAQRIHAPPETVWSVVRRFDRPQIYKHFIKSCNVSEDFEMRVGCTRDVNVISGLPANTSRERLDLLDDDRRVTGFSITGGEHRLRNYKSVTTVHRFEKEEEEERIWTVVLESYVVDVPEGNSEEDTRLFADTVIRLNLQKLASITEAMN; partner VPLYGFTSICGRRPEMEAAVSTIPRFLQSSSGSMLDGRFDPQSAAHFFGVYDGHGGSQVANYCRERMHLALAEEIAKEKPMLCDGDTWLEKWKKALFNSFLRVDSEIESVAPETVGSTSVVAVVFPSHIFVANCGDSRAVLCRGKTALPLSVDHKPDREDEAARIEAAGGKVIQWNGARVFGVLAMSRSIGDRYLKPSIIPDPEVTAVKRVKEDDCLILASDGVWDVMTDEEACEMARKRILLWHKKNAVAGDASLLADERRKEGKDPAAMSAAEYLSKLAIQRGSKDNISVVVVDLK
Change	relative binding score
T120Q	-4.7%
F66T	1.08%
D65E	11.1%
G21E	41.9%
G81S	39.9%
Q19W	3.59%
S59N	13.9%
S26R	-0.312%
S171L	18.6%
H122Q	-5.16%
E14A	3.58%
Y53P	-7.16%
K168L	-1.34%
C72S	21.2%
T135L	-9.43%
F103R	-3.7%
H55M	18.4%
S117C	3.92%
S11H	14.1%

Block 2
Target: CCNA1, cyclin fold, Cln2 fusion (human)
Technique: yeast growth competition, sequencing
Sample: yeast
Setting: weak parent motif
Reference: not given
Reading: higher = stronger binding
Starting sequence: CDT1 docking peptide (human); PPARRRLRLSVDE; partner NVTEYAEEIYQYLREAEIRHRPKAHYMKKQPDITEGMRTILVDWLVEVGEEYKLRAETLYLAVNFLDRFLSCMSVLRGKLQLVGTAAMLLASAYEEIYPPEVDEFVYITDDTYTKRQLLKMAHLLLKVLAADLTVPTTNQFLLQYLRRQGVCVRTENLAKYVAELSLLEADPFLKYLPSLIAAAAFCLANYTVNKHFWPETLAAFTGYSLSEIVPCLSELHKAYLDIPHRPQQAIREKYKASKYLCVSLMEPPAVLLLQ
Change	normalised enrichment score
PPARARARLSVDE [R5A L7A]	0.201
PPARRRLRFSVDE [L9F]	1.07
PPARRRLRASVDE [L9A]	0.325
PPARRRARLSVDE [L7A]	0.609
PPAARRLRLSVDE [R4A]	0.319
APARRRLRLSVDE [P1A]	0.354
PPARRRLRLSVAE [D12A]	0.811
PPARRRLRLSVDA [E13A]	0.606
PPARKRLRFSVDE [R5K L9F]	0.706

Block 3
Target: CREB5, bZIP domain (human)
Technique: DHFR protein complementation
Sample: yeast
Setting: single substitutions, most at no-binding floor
Reference: wild-type JUN-FOS pair
Reading: higher = stronger binding
Starting sequence: JUN, bZIP domain (human); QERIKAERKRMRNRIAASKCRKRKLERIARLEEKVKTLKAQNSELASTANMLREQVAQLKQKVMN; partner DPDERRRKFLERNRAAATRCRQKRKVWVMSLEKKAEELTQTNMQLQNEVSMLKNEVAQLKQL
Change	binding fitness [natural log]
K34A	-0.466
V35W	-1.24
K34H	-0.183
I28R	-0.326
Q55G	-1.31
E44Y	-0.625
T48G	-1.19
M51I	-0.333
V56W	-0.97
R53N	-1.13
E44R	-0.486
A46S	-0.308
Q55A	-0.553
A57T	-0.364
A49I	-0.486
L45S	-1.28
E32K	-0.233
A49V	-0.536
L38P	-1.31
K34N	-0.613
L31V	-0.88
R30T	-0.126
Q41T	-0.546
I28W	-0.348

Single results of other studies
Substance	target	assay	test system	conditions	how to read	measurement	value
PhoQ, residues 284 288 289 292 302 303 ALASRC	PhoP, residues 12 14 15 18 19 GQALL (Escherichia coli, UniProt P23836)	Sort-seq, item: YFP reporter	E. coli	PhoQ-PhoP variant library, together with: 10 µM Mg2+	reference: high Mg2+ state, higher = stronger signaling	fold induction	12.7
